Published values gathered from unrelated publications.
Compare with care: the assays were run in different laboratories. “And” joins repeats or separate records; there may be more than shown. ± marks the error that the study gave.

Cn1ncc2cc(-c3cncc(Cl)c3N3CCC4(CCNC4=O)CC3)ccc21 — log2 fold change (LS174T; gene expression, microarray, measured: G0S2 mRNA; concentration not given, 4 h; relative to: untreated cells): -1.06
O=C(O)C1OC(Oc2c(-c3ccccc3)oc3cc(O)ccc3c2=O)C(O)C(O)C1O (stereo not drawn) — Jmax (MDCKII-UGT1A1/MRP2 cells; glucuronide efflux, substrate): 6.07 ± 1.94 pmol/mg/min
CNS(=O)(=O)Nc1nccc(Cc2c(C)c3ccc(Oc4ncccc4F)cc3oc2=O)c1F — IC50 (HSC-3; cell viability; 7 days): > 1000 nM
CC(C)c1ccc(N(C)c2ccc3c(c2)OCC[C@H]3CNc2cnccc2C(=O)O)cc1 — IC50 (NCI-H2122; cell growth or viability, ATP luminescence; 7 days): 23.9 nM
COc1cccc(OC)c1-c1cc(C(=O)NC2(C(=O)O)C3CC4CC(C3)CC2C4)nn1-c1ccc(C(=O)N(C)CCOCCN(C)C(=O)[C@H](CCCCNC(=O)[C@H](CC(C)C)NC(=O)C2OC2C(=O)O)NC(=O)CN2CCN(CC(=O)[O-])CCN(CC(=O)[O-])CCN(CC(=O)[O-])CC2)cc1C(C)C.[177Lu+3] (mixture of isomers) — surface-bound fraction (HT-29; concentration not given, 60 min; relative to: added activity): 3.41 ± 0.5%
CCn1nc(Cl)c2c1-c1cnc(N)c(c1)O[C@H](C)c1cc(F)ccc1-c1nn(C)cc1C2 — Emax (Ba/F3 EML4-ALK variant 1 L1196Q; cell viability): 99.9%
CSC(=S)N/N=C(\C)c1ccc(Nc2nnc(-c3ccc(Cl)cc3)c3ccccc23)cc1 — viability (HepG2; cell growth or viability, MTT; 2.5 µM, 24 h): 7.17%
O=CCNCCOn1c(=O)n(OCCNCCO)c(=O)n(OCCNCCOn2c(=O)n(OCCNCCO)c(=O)n(OCCNCCO)c2=O)c1=O — viability (A549; cell growth or viability, MTT; 50 µg/mL, 24 h): 40.8%
CCN(C(=O)c1cc(F)ccc1Oc1nncnc1N1CCC2(C1)CN([C@H](CCCN(C)CCOC)C(C)C)C2)C(C)C — GI50 (EFO-21; cell growth or viability; 72 h): > 10000 nM
CC(C)n1nc(C(F)F)cc1C(=O)Nc1ccc([C@H]2[C@@H](O)CCCc3cncn32)c(-c2ccccc2)c1 — EC50 (BRD4-HiBiT cells; BRD4 degradation rescue, inhibitor; 8 h, 50% degradation rescued, added: dBET6 500 nM): 98.8 nM
Cc1cc(C)nc(NC(=S)N2CCN(c3ccc(C(F)(F)F)cn3)CC2)c1 — M+3 serine pool (MDA-MB-468; isotope labelling; 10 µM, 4 h, added: U-13C-glucose): decreased
Cn1c(-c2ccc(F)cc2)n[nH]c1=S — frequency of myotubes above 10 nuclei (C2C12 CELF1-overexpressing cells; myogenic differentiation, MF20 immunostaining; 10 µM, day 6): increased
C=CC(=O)N1[C@@H](c2ccc3c(c2)OCO3)c2[nH]c3ccccc3c2C[C@H]1C(=O)NC1CC1 — neuron degeneration (rat DRG neurons; 30 µM, 48 h, added: vincristine 40 nM): 16.9% and 16.1%
O=C(C[Se]C(=O)c1ccc2ccccc2c1)Nc1cccc(C(F)(F)F)c1 — mean TGI (NCI60 colon subpanel; NCI60 five-dose screen): 7840 nM
C1=[N+]2CCCC[N+]3=Cc4ccc5[n]4[Au-]23[n]2c1ccc2-c1nc2ccccc2nc1-5.F[P-](F)(F)(F)(F)F — TGI (UO-31; NCI60 five-dose screen): 4 -log M
C[C@@H]1Cc2c([nH]c3ccccc23)[C@@H](c2c(F)cc(/C=C/C(=O)O)cc2F)N1C12CC(C1)C2 — log2 fold change (MCF7; RNA-seq, measured: STON1 mRNA; 1 µM, 24 h, E2-suppressed gene; relative to: DMSO vehicle): 1.07
CCCC[C@H]1C(=O)N(C)[C@@H](CCCC)C(=O)N[C@@H](CCCCNC(=S)Nc2ccc(CN3CCN(CC(=O)O)CCN(CC(=O)O)CC3)cc2)C(=O)N[C@H](C(=O)NCC(N)=O)CSCC(=O)N[C@@H](Cc2ccc(O)cc2)C(=O)N(C)[C@@H](C)C(=O)N[C@@H](CC(N)=O)C(=O)N2CCC[C@H]2C(=O)N[C@@H](Cc2c[nH]cn2)C(=O)N[C@@H](CCC(=O)O)C(=O)N2C[C@H](O)C[C@H]2C(=O)N[C@@H](Cc2c[nH]c3ccccc23)C(=O)N[C@@H](CO)C(=O)N[C@@H](Cc2cn(CC(=O)O)c3ccccc23)C(=O)N1C [fluorine-18 labelled] — cell-bound activity (H226; binding; concentration not given, 30 min, 4 °C; relative to: added activity): 0.96 ± 0.05%
CCCC[C@H](NC(C)=O)C(=O)N[C@@H](CCC(=O)O)C(=O)N[C@@H](CO)C(=O)N[C@@H](CC(=O)O)C(=O)COC(=O)c1c(C)cccc1C — LDH release (THP-1 cells expressing FKBP-caspase-11; pyroptosis, inhibitor; concentration not given, added: B/B dimerizer): 43.1% and 42.8% and 67.6%
CCN(CC)CC(=O)Nc1cccc(-n2cc(-c3ccc4ccc(-c5cn(-c6cccc(NC(=O)CN(CC)CC)c6)nn5)cc4c3)nn2)c1 — fold regulation (RCC4; PCR angiogenesis array, measured: TIE1; 5 x IC50, 2 h, normoxia; relative to: untreated): -1.09 fold
NC(Cc1ccccc1)C(=O)N1CC(=Cc2ccc(Cl)c(Cl)c2)C(=O)C(=Cc2ccc(Cl)c(Cl)c2)C1 (stereo not drawn) — EC50 (BRD4-HiBiT cells; BRD4 degradation rescue, inhibitor; 4 h, 50% degradation rescued, added: dBET6 500 nM): 1980 nM
CCCCCCc1cccc(C(O)CC(CO)NC(=O)CCCCCCCCCCNC(C)=O)c1 (stereo not drawn) — hexosylceramide level (HeLa; CERT activity, HPLC-MS/MS lipidomics, measured: hexosylceramide 24:1; 1 µM, 24 h, not cell-number normalised): 12000 pmol/sample and 12400 pmol/sample and 13700 pmol/sample
O=C(C[Se]C(=O)c1cc2ccccc2s1)Nc1cccc(C(F)(F)F)c1 — mean growth percent (NCI60 colon subpanel; cell growth; 10 µM, 48 h, one-dose): -38.8%
O=C(O)C1OC(Oc2ccc(-c3cc(=O)c4ccccc4o3)cc2)C(O)C(O)C1O (stereo not drawn) — Jmax (MDCKII-UGT1A1/MRP2 cells; glucuronide efflux, substrate): 13.8 ± 1.37 pmol/mg/min
COc1ncccc1CN(C(=O)OCc1ccc([N+](=O)[O-])cc1F)[C@H]1C[C@@H]1c1ccccc1 (racemic) — GI50 (THP-1 cells expressing NTR; MTS; 72 h): 6000 ± 700 nM
COc1cc(/C=C/C(=O)/C=C(O)/C=C/c2ccc(OCC(=O)N3CCOCCOCCOCCOCC3)c(OC)c2)ccc1OCC(=O)N1CCOCCOCCOCCOCC1 — inhibition (SK-LU-1; cell growth or viability, SRB; 25 µM): 100%
O=C(C[Se]C(=O)c1cccnc1Nc1cccc(C(F)(F)F)c1)Nc1cccc(C(F)(F)F)c1 — mean growth percent (NCI60 colon subpanel; cell growth; 10 µM, 48 h, one-dose): -56.9%
CCNc1cc2c(cc1C)C1(c3cc(C)c(NCC)cc3O2)c2ccccc2C(=O)N1N=Cc1c[c-]c(-c2ccccn2)cc1.Cc1c(C)c(-c2ccc(-c3ccccc3)cc2)[c-](C)c1C.[Cl-].[Ir+3] — JC-1 aggregate cells (A549; flow cytometry; 1.0×IC50, 24 h): 96.24 ± 0.6%
CCN(CC)CCNC(=S)Nc1ccc2nc(N3CCN(CC)CC3)cc(C)c2c1 — GFP-positive cells (U2OS HDR-GFP reporter; homologous recombination repair, flow cytometry; 5 µM): 6.98%
O=C(C[Se]C(=O)c1ccccc1Nc1cccc(C(F)(F)F)c1)Nc1cccc(C(F)(F)F)c1 — GI50 (NCI60 colon subpanel; NCI60 five-dose screen): 2490 nM
Cc1ccc([N+](=O)[O-])cc1S(=O)(=O)N(C)/N=C/c1cnc2ccc(Br)cn12 — IC50 (NCI60; cytotoxicity, MTS): 8 nM
Cc1ncsc1-c1ccc(C(C)NC(=O)C2CC(O)CN2C(=O)C(NC(=O)CCCCCCCCCCN2CCCC(Nc3ncc(Cl)c(Nc4ccccc4S(=O)(=O)C(C)C)n3)C2)C(C)(C)C)cc1 (stereo not drawn) — log2 fold change (22Rv1; RNA-seq, measured: TTC23 mRNA; concentration not given; relative to: DMSO): -1
CNC(=O)CCN(Cc1ccc(C(F)F)cc1)C(=O)c1cc2c(OC)ccc(-c3ccc(=O)n(C)c3)c2s1 — log2 fold change (murine AML cells; BRD4 chromatin occupancy, ChIP-seq, measured: Cd47 locus; concentration not given; relative to: DMSO): -2.93
COc1ccc(NC(=O)c2ccc3[nH]c(-c4ccc(N(C)C)cc4)nc3c2)cn1 — dead cell to confluence ratio (HCEC-hTERT; IncuCyte; concentration not given, 8 h): 2.71 and 37 and 5.43
COC(=O)c1cc(NC2=NC(=O)C(=Cc3ccc(N(C)C)cc3)S2)ccc1OC(C)=O — metabolite level (MCF7; GC-MS, measured: L-Methionine; 1 µM; relative to: DMSO): -0.26 fold change
CN1CCCNC(=O)c2cccc(c2)C(=O)NCCCN(C)CCCNc2cccc3c2C(=O)c2cccc(c2C3=O)NCCC1 — log2 fold change (SAS; RNA-Seq, measured: RBMS1 mRNA; 1 µM, 6 h; relative to: untreated cells): -0.767
CCOc1cncc(-c2ccc(NC(=O)C3(c4ccnc(NS(=O)(=O)C5CC5)n4)CCOCC3)nc2)n1 — IC50 (U-266; cell growth or viability, ATP luminescence; 72 h): 3020 nM
